Experimental data gathered from unrelated publications.
Parts stem from different laboratories: compare values within a part only. ± marks the error that the study gave. Converted amounts (≈) assume the structure as drawn.
Sequence of UniProt P14416 (whole entry, looked up): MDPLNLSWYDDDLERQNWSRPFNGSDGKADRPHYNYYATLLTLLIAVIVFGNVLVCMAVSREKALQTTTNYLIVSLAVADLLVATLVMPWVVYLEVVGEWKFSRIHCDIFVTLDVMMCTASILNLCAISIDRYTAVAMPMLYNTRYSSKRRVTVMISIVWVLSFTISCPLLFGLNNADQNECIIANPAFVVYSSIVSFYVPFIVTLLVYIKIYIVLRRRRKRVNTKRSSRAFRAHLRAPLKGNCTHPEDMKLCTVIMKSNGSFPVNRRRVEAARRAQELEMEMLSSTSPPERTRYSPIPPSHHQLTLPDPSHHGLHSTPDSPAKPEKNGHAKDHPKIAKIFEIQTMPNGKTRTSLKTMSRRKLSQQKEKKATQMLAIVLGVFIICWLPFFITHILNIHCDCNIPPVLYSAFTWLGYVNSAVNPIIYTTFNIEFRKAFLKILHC
Sequence of UniProt Q9VK33 (whole entry, looked up): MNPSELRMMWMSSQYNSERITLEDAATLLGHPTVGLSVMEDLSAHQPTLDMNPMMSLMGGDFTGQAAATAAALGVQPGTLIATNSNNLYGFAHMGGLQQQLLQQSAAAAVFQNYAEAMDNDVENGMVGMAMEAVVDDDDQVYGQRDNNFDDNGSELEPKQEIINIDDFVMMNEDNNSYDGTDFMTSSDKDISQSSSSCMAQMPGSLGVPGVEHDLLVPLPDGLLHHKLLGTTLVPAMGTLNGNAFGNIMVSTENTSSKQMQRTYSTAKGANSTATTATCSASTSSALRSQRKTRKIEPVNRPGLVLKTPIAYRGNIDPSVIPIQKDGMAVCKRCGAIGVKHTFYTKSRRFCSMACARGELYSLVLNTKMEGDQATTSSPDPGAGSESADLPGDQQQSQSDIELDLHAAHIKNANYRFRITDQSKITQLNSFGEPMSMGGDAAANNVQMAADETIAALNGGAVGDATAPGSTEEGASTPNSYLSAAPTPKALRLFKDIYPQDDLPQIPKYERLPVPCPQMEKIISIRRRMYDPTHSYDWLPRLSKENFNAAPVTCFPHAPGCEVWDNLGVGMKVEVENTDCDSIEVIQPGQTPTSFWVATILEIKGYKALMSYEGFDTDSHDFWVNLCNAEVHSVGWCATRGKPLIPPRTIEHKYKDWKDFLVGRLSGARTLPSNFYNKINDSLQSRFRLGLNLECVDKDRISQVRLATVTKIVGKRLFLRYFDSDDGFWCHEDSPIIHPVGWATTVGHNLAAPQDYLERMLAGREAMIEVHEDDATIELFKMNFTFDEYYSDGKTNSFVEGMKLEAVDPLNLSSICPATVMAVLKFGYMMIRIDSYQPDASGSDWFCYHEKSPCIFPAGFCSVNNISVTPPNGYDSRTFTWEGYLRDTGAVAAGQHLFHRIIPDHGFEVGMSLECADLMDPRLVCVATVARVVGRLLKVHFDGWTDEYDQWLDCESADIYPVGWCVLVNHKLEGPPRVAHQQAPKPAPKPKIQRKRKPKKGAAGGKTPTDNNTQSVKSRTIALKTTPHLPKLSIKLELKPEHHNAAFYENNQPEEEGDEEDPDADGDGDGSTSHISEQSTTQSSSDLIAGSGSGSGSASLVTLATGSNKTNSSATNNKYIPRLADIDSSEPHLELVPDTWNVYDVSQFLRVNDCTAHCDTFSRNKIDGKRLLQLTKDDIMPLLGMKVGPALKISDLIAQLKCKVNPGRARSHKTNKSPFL

Series 1
Cell line: NB-4 APL cells
Endpoint: IC50
SMILES = NC1CC1c1ccc(NC(=O)Cc2ccc3ccccc3c2)cc1 (centres unmarked); value = 16.4 ± 3.3 µM
SMILES = COc1ccc(CC(NC(=O)OCc2ccccc2)C(=O)Nc2ccc(C3CC3N)cc2)cc1 (centres unmarked); value = 6.2 ± 0.5 µM
SMILES = NC1CC1c1ccc(NC(=O)C(Cc2ccc3ccccc3c2)NC(=O)OCc2ccccc2)cc1 (centres unmarked); value = 23.2 ± 4.2 µM
SMILES = CC(C)C(NC(=O)OCc1ccccc1)C(=O)Nc1ccc(C2CC2N)cc1 (centres unmarked); value = 70.4 ± 9.8 µM
SMILES = NC1CC1c1ccc(NC(=O)C(CC2CCCCC2)NC(=O)OCc2ccccc2)cc1 (centres unmarked); value = 30.3 ± 3.9 µM
SMILES = NC1CC1c1ccc(NC(=O)Cc2cccc3ccccc23)cc1 (centres unmarked); value = 17.8 ± 2 µM
SMILES = NC1CC1c1ccc(NC(=O)C(NC(=O)OCc2ccccc2)c2ccccc2)cc1 (centres unmarked); value = 62.2 ± 9.2 µM

Series 2
SMILES: CC[C@H](C)[C@H](NC(=O)[C@H](CC(C)C)NC(=O)[C@H](CCCCN)NC(=O)[C@@H](NC(=O)[C@H](C)NC(=O)[C@H](CCC(=O)O)NC(=O)[C@H](Cc1c[nH]cn1)NC(=O)[C@@H](NC(=O)[C@H](CCCCN)NC(=O)[C@H](CCC(N)=O)NC(=O)[C@H](Cc1ccccc1)NC(=O)[C@@H](NC(=O)[C@H](CCCCN)NC(=O)[C@H](CCCCN)NC(=O)[C@H](CC(C)C)NC(=O)[C@H](C)NC(=O)[C@H](CC(N)=O)NC(=O)[C@@H](N)CC(C)C)C(C)C)[C@@H](C)CC)[C@@H](C)CC)C(N)=O
Time: 18 h
Temperature: 37 °C
Endpoint: MIC
organism = Escherichia coli; strain = CCARM 1238, resistant; value = 2 µM (≈ 4.21 µg/mL)
organism = Staphylococcus aureus; strain = MW2, resistant; value = 4 µM (≈ 8.42 µg/mL)
organism = Escherichia coli; strain = CCARM 1229, resistant; value = 2 µM (≈ 4.21 µg/mL)

Other studies, line by line
TTR: Transthyretin (TTR, Homo sapiens, UniProt P02766)
SMILES = C#CCCCOc1cc(OCCCc2c(C)n[nH]c2C)cc(C(=O)O)c1; target = TTR; read-out = binding; endpoint = Kd; value = 0.042 µM
SMILES = CC(C)[C@H](NC(=O)CNC(=O)CNC(=O)[C@@H](NC(=O)[C@H](C)NC(=O)[C@@H]1CCCN1C(=O)[C@H](C)NC(=O)[C@@H](N)CO)[C@@H](C)O)C(=O)N[C@@H](CCCC[N+](C)(C)C)C(=O)N[C@@H](CCCCN)C(=O)N1CCC[C@H]1C(=O)N[C@@H](Cc1c[nH]cn1)C(=O)N[C@@H](CCCNC(=N)N)C(=O)N[C@@H](Cc1ccc(O)cc1)C(=O)N[C@@H](CCCNC(=N)N)C(=O)N1CCC[C@H]1C(=O)NCC(N)=O; target = Polycomb protein Sfmbt (Sfmbt, Drosophila melanogaster, UniProt Q9VK33); read-out = binding; method = ITC; notes = Drosophila melanogaster protein; endpoint = Kd; value = > 1000 µM
SMILES = Cn1ccc2c(N3CCN(CCCCOc4ccc5c(c4)NC(=O)CC5)CC3)cccc21; target = D(2) dopamine receptor, D2 long isoform (DRD2, Homo sapiens, UniProt P14416); endpoint = Ki; value = 0.0112 µM
SMILES = CC(C)C[C@H](NC(=O)CNC(=O)[C@H](Cc1ccc(O)cc1)NC(=O)[C@H](CO)NC(=O)[C@H](Cc1c[nH]c2ccccc12)NC(=O)[C@H](Cc1c[nH]cn1)NC(=O)[C@H](CCC(=O)O)NC(=O)CCOCCOCCOCCN=[N+]=[N-])C(=O)N[C@@H](CCCNC(=N)N)C(=O)N1CCC[C@H]1C(=O)NCC(N)=O; target = TTR; read-out = binding; endpoint = Kd; value = > 10 µM

Repeated from above (series 1):
SMILES = NC1CC1c1ccc(NC(=O)Cc2cccc3ccccc23)cc1 (centres unmarked); value = 17.8 ± 2 µM
SMILES = NC1CC1c1ccc(NC(=O)C(NC(=O)OCc2ccccc2)c2ccccc2)cc1 (centres unmarked); value = 62.2 ± 9.2 µM
